Measurements of several laboratories.
Every numbered part comes from another study and shows a few of its results, in no order.
Sequence of UniProt Q9BYP7 (whole entry, looked up): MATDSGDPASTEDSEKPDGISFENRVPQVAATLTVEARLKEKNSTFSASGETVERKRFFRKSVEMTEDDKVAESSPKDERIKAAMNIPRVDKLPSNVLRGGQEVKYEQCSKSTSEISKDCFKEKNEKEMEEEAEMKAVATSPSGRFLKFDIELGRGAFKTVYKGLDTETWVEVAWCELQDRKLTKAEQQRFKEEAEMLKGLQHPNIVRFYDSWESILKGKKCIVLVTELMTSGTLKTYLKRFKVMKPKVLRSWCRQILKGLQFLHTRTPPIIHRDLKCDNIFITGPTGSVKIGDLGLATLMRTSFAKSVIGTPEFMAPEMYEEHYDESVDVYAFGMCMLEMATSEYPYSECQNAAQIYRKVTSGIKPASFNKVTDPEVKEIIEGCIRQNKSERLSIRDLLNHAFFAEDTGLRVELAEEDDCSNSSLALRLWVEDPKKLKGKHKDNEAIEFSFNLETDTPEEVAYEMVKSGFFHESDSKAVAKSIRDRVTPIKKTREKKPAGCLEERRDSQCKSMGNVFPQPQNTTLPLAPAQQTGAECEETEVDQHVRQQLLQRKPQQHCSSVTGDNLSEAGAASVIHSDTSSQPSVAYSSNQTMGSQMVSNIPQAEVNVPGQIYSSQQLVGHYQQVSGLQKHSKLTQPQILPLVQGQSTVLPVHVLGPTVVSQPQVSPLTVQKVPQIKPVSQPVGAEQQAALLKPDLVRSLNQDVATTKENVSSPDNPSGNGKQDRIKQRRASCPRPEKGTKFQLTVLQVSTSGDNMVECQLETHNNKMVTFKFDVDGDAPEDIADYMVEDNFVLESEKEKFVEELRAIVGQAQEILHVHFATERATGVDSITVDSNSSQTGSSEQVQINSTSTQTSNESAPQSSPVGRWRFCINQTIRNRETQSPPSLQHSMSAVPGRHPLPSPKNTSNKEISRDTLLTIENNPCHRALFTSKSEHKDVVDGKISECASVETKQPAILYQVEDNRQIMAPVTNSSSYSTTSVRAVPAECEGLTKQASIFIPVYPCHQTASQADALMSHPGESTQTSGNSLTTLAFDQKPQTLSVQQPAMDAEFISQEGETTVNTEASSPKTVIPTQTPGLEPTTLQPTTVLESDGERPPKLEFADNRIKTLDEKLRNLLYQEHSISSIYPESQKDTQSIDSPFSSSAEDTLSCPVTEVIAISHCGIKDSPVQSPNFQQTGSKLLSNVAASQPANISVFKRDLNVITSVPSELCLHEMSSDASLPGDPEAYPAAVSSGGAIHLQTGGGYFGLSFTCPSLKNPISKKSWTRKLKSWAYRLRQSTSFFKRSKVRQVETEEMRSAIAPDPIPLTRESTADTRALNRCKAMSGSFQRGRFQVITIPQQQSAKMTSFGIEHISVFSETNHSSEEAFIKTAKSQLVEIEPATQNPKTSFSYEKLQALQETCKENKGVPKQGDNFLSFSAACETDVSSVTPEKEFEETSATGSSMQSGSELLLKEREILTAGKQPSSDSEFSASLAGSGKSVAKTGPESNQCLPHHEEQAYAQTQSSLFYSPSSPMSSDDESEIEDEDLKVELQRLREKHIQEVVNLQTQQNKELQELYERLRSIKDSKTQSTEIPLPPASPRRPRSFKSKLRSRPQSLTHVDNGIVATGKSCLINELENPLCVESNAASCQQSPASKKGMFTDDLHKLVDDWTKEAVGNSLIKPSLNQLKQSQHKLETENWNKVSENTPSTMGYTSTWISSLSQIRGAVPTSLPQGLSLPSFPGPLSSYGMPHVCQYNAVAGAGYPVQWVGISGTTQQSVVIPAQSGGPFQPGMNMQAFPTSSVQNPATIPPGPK
Sequence of UniProt O95819 (whole entry, looked up): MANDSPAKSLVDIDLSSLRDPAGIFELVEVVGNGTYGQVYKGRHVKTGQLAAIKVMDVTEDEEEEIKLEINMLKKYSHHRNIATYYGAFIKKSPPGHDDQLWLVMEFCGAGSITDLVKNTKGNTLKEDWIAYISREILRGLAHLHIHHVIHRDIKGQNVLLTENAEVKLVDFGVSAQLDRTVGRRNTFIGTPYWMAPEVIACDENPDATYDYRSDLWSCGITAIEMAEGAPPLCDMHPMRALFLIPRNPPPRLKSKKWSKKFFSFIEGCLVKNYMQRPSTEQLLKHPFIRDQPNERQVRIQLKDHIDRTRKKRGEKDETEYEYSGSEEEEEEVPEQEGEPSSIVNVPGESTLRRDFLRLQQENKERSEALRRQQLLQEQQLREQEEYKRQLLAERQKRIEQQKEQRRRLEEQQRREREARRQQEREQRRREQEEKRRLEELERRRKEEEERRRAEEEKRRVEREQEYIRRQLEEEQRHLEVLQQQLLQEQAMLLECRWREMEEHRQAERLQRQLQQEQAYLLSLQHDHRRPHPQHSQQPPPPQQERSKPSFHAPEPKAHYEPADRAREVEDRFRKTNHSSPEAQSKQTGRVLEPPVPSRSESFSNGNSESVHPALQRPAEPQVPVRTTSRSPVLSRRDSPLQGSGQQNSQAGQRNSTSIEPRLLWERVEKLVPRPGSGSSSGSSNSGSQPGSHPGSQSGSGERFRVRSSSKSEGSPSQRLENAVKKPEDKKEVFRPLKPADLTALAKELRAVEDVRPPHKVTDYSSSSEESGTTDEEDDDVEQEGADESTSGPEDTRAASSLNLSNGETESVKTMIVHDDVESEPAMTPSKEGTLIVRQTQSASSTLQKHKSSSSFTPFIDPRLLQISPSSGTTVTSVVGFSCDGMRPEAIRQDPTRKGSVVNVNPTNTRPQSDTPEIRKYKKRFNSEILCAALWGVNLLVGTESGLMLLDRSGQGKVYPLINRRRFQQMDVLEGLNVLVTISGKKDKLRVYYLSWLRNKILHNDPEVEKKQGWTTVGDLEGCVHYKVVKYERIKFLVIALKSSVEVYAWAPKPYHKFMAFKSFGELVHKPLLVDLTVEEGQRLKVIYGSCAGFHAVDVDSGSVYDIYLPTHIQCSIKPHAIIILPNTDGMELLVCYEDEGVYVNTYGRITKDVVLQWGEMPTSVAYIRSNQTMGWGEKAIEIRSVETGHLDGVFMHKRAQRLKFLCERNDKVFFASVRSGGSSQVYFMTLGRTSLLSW
Sequence of UniProt P53350 (whole entry, looked up): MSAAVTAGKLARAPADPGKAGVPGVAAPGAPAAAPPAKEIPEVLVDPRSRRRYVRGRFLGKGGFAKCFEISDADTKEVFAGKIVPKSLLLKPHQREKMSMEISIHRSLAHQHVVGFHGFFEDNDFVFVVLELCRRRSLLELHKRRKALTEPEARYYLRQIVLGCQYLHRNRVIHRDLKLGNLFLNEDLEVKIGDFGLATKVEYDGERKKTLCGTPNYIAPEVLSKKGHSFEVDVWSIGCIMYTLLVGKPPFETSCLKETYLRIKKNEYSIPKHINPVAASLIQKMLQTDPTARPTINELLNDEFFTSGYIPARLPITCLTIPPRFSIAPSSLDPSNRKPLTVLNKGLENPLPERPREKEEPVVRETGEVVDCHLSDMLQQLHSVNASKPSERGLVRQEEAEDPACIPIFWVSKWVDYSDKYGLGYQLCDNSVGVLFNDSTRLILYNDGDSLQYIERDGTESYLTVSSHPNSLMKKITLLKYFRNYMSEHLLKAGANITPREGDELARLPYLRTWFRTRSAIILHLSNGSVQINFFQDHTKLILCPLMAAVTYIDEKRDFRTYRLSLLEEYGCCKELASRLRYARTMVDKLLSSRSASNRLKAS
Sequence of UniProt P45985 (whole entry, looked up): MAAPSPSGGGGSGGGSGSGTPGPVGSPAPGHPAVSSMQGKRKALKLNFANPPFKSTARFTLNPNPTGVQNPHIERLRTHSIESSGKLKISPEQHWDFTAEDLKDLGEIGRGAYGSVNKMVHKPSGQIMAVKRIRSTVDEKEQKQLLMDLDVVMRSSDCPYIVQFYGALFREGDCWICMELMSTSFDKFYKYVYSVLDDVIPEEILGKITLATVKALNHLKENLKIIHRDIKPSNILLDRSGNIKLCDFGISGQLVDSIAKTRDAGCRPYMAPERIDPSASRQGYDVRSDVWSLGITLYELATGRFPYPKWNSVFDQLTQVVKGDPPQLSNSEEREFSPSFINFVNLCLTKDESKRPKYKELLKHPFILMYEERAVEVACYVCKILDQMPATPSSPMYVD
Sequence of UniProt P54764 (whole entry, looked up): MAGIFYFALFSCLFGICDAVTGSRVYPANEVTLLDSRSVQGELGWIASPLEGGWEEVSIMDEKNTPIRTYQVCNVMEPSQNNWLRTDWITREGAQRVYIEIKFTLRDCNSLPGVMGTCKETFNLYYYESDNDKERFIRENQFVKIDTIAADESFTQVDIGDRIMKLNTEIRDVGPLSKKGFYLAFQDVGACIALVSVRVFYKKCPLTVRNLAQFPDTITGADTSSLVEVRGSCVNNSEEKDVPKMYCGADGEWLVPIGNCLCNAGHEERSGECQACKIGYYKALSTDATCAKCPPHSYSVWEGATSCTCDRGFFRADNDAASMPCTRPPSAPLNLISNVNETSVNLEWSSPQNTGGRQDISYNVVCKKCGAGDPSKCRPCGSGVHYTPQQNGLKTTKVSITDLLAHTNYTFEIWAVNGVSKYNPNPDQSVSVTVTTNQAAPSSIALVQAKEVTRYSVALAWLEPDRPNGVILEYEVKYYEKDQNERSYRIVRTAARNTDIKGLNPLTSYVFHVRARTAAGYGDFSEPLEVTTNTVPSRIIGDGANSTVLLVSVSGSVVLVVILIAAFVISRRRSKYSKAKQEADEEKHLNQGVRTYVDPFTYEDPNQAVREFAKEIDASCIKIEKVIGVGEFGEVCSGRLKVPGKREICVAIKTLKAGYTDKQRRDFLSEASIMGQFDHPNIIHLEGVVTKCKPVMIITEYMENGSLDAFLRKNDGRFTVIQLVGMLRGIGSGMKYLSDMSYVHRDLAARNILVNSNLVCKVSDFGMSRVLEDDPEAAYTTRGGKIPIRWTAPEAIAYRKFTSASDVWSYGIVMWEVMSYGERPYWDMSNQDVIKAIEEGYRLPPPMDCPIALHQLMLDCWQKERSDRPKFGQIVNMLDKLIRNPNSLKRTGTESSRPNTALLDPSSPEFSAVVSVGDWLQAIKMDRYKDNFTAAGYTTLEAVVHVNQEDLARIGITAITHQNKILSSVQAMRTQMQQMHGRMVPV

Block 1
Compound: CC(=O)N1CCC(c2ccc(C(=O)NC(=N)N)cc2C(F)(F)F)CC1
Tested at: 1 µM
| target | assay | remaining binding [%] |
| --- | --- | --- |
| Ribosomal protein S6 kinase alpha-4, N-terminal kinase domain (RPS6KA4, Homo sapiens, UniProt O75676) | cell-free assay, competition with immobilised ligand | 100 |
| BMP2K (Homo sapiens, UniProt Q9NSY1) | cell-free assay, competition with immobilised ligand | 96 |
| EPHA8 (Homo sapiens, UniProt P29322) | cell-free assay, competition with immobilised ligand | 100 |
| CSNK1A1L (Homo sapiens, UniProt Q8N752) | cell-free assay, competition with immobilised ligand | 100 |
| MELK (Homo sapiens, UniProt Q14680) | cell-free assay, competition with immobilised ligand | 100 |
| Receptor-type tyrosine-protein kinase FLT3, autoinhibited (FLT3, Homo sapiens, UniProt P36888) | cell-free assay, competition with immobilised ligand | 100 |
| Aurora kinase C (AURKC, Homo sapiens, UniProt Q9UQB9) | cell-free assay, competition with immobilised ligand | 100 |
| SBK1 (Homo sapiens, UniProt Q52WX2) | cell-free assay, competition with immobilised ligand | 100 |
| SRC (Homo sapiens, UniProt P12931) | cell-free assay, competition with immobilised ligand | 100 |
| Ribosomal protein S6 kinase alpha-2, N-terminal kinase domain (RPS6KA2, Homo sapiens, UniProt Q15349) | cell-free assay, competition with immobilised ligand | 90 |
| PLK1 (Homo sapiens, UniProt P53350) | cell-free assay, competition with immobilised ligand | 90 |
| BMPR2 (Homo sapiens, UniProt Q13873) | cell-free assay, competition with immobilised ligand | 100 |
| MAP3K15 (Homo sapiens, UniProt Q6ZN16) | cell-free assay, competition with immobilised ligand | 100 |
| FLT3 (Homo sapiens, UniProt P36888, D835V/ITD) | cell-free assay, competition with immobilised ligand | 100 |
| SIK2 (Homo sapiens, UniProt Q9H0K1) | cell-free assay, competition with immobilised ligand | 100 |
| CDK19 (Homo sapiens, UniProt Q9BWU1) | competition binding | 100 |
| MAP2K4 (Homo sapiens, UniProt P45985) | cell-free assay, competition with immobilised ligand | 95 |
| PRKD3 (Homo sapiens, UniProt O94806) | cell-free assay, competition with immobilised ligand | 80 |
| STK10 (Homo sapiens, UniProt O94804) | cell-free assay, competition with immobilised ligand | 94 |
| FGFR1 (Homo sapiens, UniProt P11362) | cell-free assay, competition with immobilised ligand | 100 |
| STK11 (Homo sapiens, UniProt Q15831) | cell-free assay, competition with immobilised ligand | 73 |
| STK36 (Homo sapiens, UniProt Q9NRP7) | cell-free assay, competition with immobilised ligand | 100 |
| WNK3 (Homo sapiens, UniProt Q9BYP7) | cell-free assay, competition with immobilised ligand | 84 |
| CHUK (Homo sapiens, UniProt O15111) | cell-free assay, competition with immobilised ligand | 100 |

Block 2
SMILES: CC(C)CN(C)c1nc(N)c(C(=O)N=C(N)N)nc1Cl
Read-out: β-arrestin recruitment
Mode: agonist
Method: PRESTO-Tango
Tested at: 10 µM
Reference: untreated
| target | fold over basal |
| --- | --- |
| SSTR1 (Homo sapiens, UniProt P30872) | 0.87 |
| NMBR (Homo sapiens, UniProt P28336) | 0.88 |
| NPY2R (Homo sapiens, UniProt P49146) | 0.65 |
| GALR1 (Homo sapiens, UniProt P47211) | 0.89 fold |
| HTR1E (Homo sapiens, UniProt P28566) | 1.24 |
| GLP2R (Homo sapiens, UniProt O95838) | 0.3 fold |
| S1PR2 (Homo sapiens, UniProt O95136) | 0.74 |
| S1PR4 (Homo sapiens, UniProt O95977) | 1.06 |

Block 3
Structure (SMILES): Nc1[nH]nc2nnc(-c3c(-c4ccccc4)nn4ccccc34)cc12
Read-out: enzyme activity
Mode: inhibitor
Tested at: 0.5 µM
Reference: control
| target | remaining activity |
| --- | --- |
| RPS6KA5 (Homo sapiens, UniProt O75582) | 101% |
| EPHB1 (Homo sapiens, UniProt P54762) | 98.6% |
| STK17A (Homo sapiens, UniProt Q9UEE5) | 99.9% |
| RPS6KA6 (Homo sapiens, UniProt Q9UK32) | 95.5% |
| SRMS (Homo sapiens, UniProt Q9H3Y6) | 93% |
| DYRK3 (Homo sapiens, UniProt O43781) | 99.8% |
| TSSK2 (Homo sapiens, UniProt Q96PF2) | 104% |
| EPHA4 (Homo sapiens, UniProt P54764) | 85.9% |
| Cyclin-dependent kinase 6, with cyclin D3 (CDK6, Homo sapiens, UniProt Q00534) | 90.4% |
| PDPK1 (Homo sapiens, UniProt O15530) | 104% |
| Cyclin-dependent kinase 1, with cyclin B (CDK1, Homo sapiens, UniProt P06493) | 90.2% |
| AXL (Homo sapiens, UniProt P30530) | 99.1% |
| ABL1 (Homo sapiens, UniProt P00519) | 83.3% |
| BLK (Homo sapiens, UniProt P51451) | 98.1% |
| PHKG1 (Homo sapiens, UniProt Q16816) | 101% |
| STK16 (Homo sapiens, UniProt O75716) | 108% |
| MAP4K4 (Homo sapiens, UniProt O95819) | 62% |
| CAMK2B (Homo sapiens, UniProt Q13554) | 102% |
| EPHB4 (Homo sapiens, UniProt P54760) | 98.5% |
| HIPK2 (Homo sapiens, UniProt Q9H2X6) | 104% |
| HIPK4 (Homo sapiens, UniProt Q8NE63) | 105% |
| MAPKAPK3 (Homo sapiens, UniProt Q16644) | 103% |
| WNK3 (Homo sapiens, UniProt Q9BYP7) | 101% |
| Cyclin-dependent kinase 4, with cyclin D3 (CDK4, Homo sapiens, UniProt P11802) | 100% |

Block 4
SMILES: CC(=O)N[C@@H](Cc1c[nH]c2ccccc12)C(=O)N[C@@H](CCC(=O)C=[N+]=[N-])C(=O)OC(C)C
Dose: dose not given
| assay | system | how to read | fold change |
| --- | --- | --- | --- |
| measured: 2'-deoxyguanosine 3'-monophosphate | mouse, EL4 tumour, tumour | reference: vehicle | 3.77 |
| measured: dehydroascorbate | mouse, EL4 tumour-bearing, EL4 tumour | reference: vehicle | 2.21 |
| metabolomics, measured: uridine 2'-monophosphate | mouse, EL4 tumour | reference: vehicle | 2.43 |
| metabolomics, measured: ribulose/xylulose 5-phosphate | mouse, EL4 tumour | reference: vehicle | 2.99 |
| measured: CoA-glutathione* | mouse, EL4 tumour-bearing, EL4 tumour | reference: vehicle | 0.41 |
| measured: 1-methylhistamine | mouse, EL4 tumour-bearing, EL4 tumour | reference: vehicle | 2.57 |
| measured: glutamate gamma-methyl ester | mouse, EL4 tumour, tumour | reference: vehicle | 0.132 |
| metabolomics, measured: 2-hydroxy-4-(methylthio)butanoic acid | mouse, EL4 tumour | reference: vehicle | 0.395 |
| metabolomics, measured: N-acetylaspartate | mouse, EL4 tumour | reference: vehicle | 3.29 |
| measured: 2'-deoxyadenosine 5'-monophosphate | mouse, EL4 tumour, tumour | reference: vehicle | 0.364 |
| measured: pyrraline | mouse, EL4 tumour-bearing, EL4 tumour | reference: vehicle | 0.497 |
| measured: catechol sulfate | Mus musculus, EL4 tumour | reference: over vehicle | 2.09 |
| metabolomics, measured: 2,3-dihydroxy-2-methylbutyrate | mouse, EL4 tumour | reference: vehicle | 0.438 |

A few entries again (block 3):
| target | remaining activity |
| --- | --- |
| ABL1 (Homo sapiens, UniProt P00519) | 83.3% |
| BLK (Homo sapiens, UniProt P51451) | 98.1% |
| PHKG1 (Homo sapiens, UniProt Q16816) | 101% |
| STK16 (Homo sapiens, UniProt O75716) | 108% |
| MAP4K4 (Homo sapiens, UniProt O95819) | 62% |
| CAMK2B (Homo sapiens, UniProt Q13554) | 102% |
| EPHB4 (Homo sapiens, UniProt P54760) | 98.5% |
